{"data": "Assay results collected from several papers", "note": "Every numbered part comes from another study and shows a few of its results, in no order."}
{"data": "Series 1", "target": "Prothrombin, mature alpha-thrombin (F2, Homo sapiens, UniProt P00734)", "technique": "aptamer microarray, sandwich", "molecule type": "DNA with 2'F-ANA", "matrix": "in vitro", "tested at": "200 nM", "setting": "whole 15-mer aptamer, many near background", "together with": "Cy3 exosite-II aptamer, 400 nM", "direction": "higher = stronger binding"}
{"Sequence": "GGTTGGTGTGGTTGG (2'F-ANA at 3 7 8 9 10 11 12 13 15)", "mean fluorescence intensity [a.u.]": 552}
{"Sequence": "GGTTGGTGTGGTTGG (2'F-ANA at 1 3 7 8 11 12)", "mean fluorescence intensity [a.u.]": 579}
{"Sequence": "GGTTGGTGTGGTTGG (2'F-ANA at 1 2 6 8 9 10 11 14 15)", "mean fluorescence intensity [a.u.]": 46.9}
{"data": "Series 2", "target": "Interferon regulatory factor 3, full length, phosphomimetic (IRF3, Homo sapiens, UniProt Q14653, residues 1-427, S386D/S396D/S398D/S402D/T404D/S405D)", "technique": "protein-binding microarray", "molecule type": "double-stranded DNA, one strand shown", "matrix": "in vitro", "tested at": "2540 nM top", "setting": "60-bp whole probe", "together with": "salmon DNA 0.4 mg/ml", "relative to": "random background probes", "direction": "higher = stronger binding", "Residues (chain)": "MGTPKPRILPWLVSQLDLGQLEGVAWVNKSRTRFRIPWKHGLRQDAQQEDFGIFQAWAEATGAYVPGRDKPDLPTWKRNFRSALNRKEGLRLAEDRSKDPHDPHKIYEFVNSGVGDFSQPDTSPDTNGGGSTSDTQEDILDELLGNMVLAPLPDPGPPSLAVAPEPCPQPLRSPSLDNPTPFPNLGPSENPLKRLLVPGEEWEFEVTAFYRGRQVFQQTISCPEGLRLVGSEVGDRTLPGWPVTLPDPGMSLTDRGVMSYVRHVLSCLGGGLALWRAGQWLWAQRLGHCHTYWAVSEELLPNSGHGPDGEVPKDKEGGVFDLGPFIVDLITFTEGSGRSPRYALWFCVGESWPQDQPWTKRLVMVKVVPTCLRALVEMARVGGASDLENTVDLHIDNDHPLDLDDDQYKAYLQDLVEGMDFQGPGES"}
{"Sequence": "GCCTAGCACTCATTTTTCTTTAAAAGACTGTGCTAGGTCTTGATTCGCTTGACGCTGCTG", "fitted relative affinity [z-score]": 2.06}
{"Sequence": "GCCTAGCACGACGGTTCGGGTTTCGGGACGTGCTAGGTCTTGATTCGCTTGACGCTGCTG", "fitted relative affinity [z-score]": 2.2}
{"Sequence": "GCCTAGCACGTAGAACTGGGGTATCGATTAGTGCTAGTCTTGATTCGCTTGACGCTGCTG", "fitted relative affinity [z-score]": -0.448}
{"Sequence": "GCCTAGCACTATGGTATGCTCATGACAAAGTGCTAGGTCTTGATTCGCTTGACGCTGCTG", "fitted relative affinity [z-score]": -0.161}
{"data": "Series 3", "target": "Sal-like protein 4, full length isoform A (SALL4, Homo sapiens, UniProt Q9UJQ4, residues 1-1053)", "technique": "universal PBM", "molecule type": "double-stranded DNA, one strand shown", "matrix": "in vitro", "tested at": "600 nM", "setting": "8-mer, flanks averaged, mean of replicates", "direction": "higher = stronger binding", "UniProt Q9UJQ4, sequence (whole entry, looked up)": "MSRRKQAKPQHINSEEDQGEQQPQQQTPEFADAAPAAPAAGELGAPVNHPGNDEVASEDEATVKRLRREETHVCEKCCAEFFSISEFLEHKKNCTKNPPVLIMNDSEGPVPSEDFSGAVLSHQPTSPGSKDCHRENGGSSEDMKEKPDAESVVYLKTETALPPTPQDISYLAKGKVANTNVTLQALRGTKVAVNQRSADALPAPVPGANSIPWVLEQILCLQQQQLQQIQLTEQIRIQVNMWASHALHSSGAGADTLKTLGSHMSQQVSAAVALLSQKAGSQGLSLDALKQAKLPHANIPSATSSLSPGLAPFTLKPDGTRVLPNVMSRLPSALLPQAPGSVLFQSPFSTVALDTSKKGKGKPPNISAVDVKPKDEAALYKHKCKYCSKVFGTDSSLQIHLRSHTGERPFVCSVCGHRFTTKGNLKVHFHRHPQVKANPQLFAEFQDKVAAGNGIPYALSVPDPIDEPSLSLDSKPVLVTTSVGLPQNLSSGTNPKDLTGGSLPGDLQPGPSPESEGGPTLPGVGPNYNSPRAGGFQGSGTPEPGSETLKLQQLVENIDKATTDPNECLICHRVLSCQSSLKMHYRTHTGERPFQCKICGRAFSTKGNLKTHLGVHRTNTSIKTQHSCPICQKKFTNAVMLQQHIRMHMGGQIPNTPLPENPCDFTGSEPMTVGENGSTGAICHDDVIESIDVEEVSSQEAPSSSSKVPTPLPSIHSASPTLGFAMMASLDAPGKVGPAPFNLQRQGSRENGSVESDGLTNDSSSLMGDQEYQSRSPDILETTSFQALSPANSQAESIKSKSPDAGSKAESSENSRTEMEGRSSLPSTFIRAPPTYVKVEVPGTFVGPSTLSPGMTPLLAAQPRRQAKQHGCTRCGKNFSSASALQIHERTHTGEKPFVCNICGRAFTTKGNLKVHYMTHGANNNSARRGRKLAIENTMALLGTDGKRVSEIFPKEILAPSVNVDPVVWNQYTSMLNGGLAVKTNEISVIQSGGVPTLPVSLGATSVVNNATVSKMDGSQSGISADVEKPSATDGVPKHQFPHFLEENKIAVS"}
{"Sequence": "CAACGTAA", "E-score": 0.103}
{"Sequence": "AAGCACCC", "E-score": -0.271}
{"Sequence": "AGGGTCGG", "E-score": -0.32}
{"data": "Single results of other studies"}
{"Molecule": "PhoQ, residues 284 288 289 292 302 303 ALVSVA", "target": "PhoP, residues 12 14 15 18 19 AQALL (Escherichia coli, UniProt P23836)", "test": "Sort-seq, item: YFP reporter", "system": "E. coli", "setting": "PhoQ-PhoP variant library, together with: 10 µM Mg2+", "how to read": "relative to: high Mg2+ state, higher = stronger signaling", "endpoint": "fold induction", "value": 14.4}
{"note": "A few entries again (series 2):"}
{"Sequence": "GCCTAGCACGTAGAACTGGGGTATCGATTAGTGCTAGTCTTGATTCGCTTGACGCTGCTG", "fitted relative affinity [z-score]": -0.448}
